{"data": "Experimental data of several laboratories", "SIRT1": "NAD-dependent protein deacetylase sirtuin-1 (SIRT1, Homo sapiens, UniProt Q96EB6)", "note": "± marks the error that the study gave.", "UniProt Q96EB6, sequence (whole entry, unmodified, looked up)": "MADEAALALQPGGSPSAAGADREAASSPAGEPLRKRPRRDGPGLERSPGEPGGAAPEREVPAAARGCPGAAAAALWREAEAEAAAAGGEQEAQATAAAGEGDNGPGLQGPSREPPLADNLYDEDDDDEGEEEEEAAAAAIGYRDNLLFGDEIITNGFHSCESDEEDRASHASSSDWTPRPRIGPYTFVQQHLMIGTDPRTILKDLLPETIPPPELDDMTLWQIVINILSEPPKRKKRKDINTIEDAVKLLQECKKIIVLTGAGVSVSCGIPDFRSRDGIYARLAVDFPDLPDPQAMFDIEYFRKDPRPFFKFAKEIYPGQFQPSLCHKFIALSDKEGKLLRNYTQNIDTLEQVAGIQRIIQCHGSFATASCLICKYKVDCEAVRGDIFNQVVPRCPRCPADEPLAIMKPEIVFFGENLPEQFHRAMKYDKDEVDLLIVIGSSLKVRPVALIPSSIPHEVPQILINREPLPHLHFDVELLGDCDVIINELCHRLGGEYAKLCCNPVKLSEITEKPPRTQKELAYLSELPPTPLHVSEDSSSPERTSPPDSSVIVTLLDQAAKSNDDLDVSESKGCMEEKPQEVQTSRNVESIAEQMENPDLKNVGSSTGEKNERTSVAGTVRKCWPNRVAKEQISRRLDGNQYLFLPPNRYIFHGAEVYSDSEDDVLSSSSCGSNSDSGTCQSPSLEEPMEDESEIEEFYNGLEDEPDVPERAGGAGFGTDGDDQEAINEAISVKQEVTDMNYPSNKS"}
{"Structure (SMILES)": "CCCCCCCCCCCCCC(=S)NCCCC[C@H](NC(=O)[C@@H]1CCCN1C(=O)[C@@H](N)CC(C)C)C(=O)N[C@@H](CCCCN)C(=O)N[C@H](C(=O)O)[C@@H](C)O", "target": "SIRT1", "quantity": "IC50", "value": "4.7 µM"}
{"Structure (SMILES)": "Cc1cc(C)nc(SCC(=O)Nc2ncc(Cc3cccc4ccccc34)s2)n1", "target": "SIRT1", "assay": "enzyme activity, inhibitor, fluorescence", "quantity": "IC50", "value": "> 100 µM"}
{"Structure (SMILES)": "C#CC[C@H](NC(=O)[C@H](Cc1ccccc1)NC(=O)[C@H](CCSC)NC(=O)[C@H](CC(C)C)NC(=O)[C@H](CCCCNC(C)=S)NC(=O)[C@H](CCCCN)NC(=O)[C@H](Cc1c[nH]cn1)NC(=O)[C@H](CCCNC(=N)N)NC(=O)CCC1(C)N=N1)C(N)=O", "target": "SIRT1", "assay": "enzyme activity, inhibitor", "setting": "pH 7.5", "quantity": "IC50", "value": "0.11 µM"}
{"Structure (SMILES)": "O=C(NO)c1ccc(Cn2sc3ccccc3c2=O)cc1", "target": "SIRT1", "assay": "enzyme activity, inhibitor", "quantity": "IC50", "value": "1.2 µM"}
{"Structure (SMILES)": "CN(Cc1ccc(F)cc1)Cc1cc(=O)oc2cc(O)ccc12", "target": "SIRT1", "assay": "binding, SPR", "quantity": "Kd", "value": "26.4 µM"}
{"Structure (SMILES)": "CCCCCCCCCCCCCC(=S)NCCCC[C@H](NS(C)(=O)=O)C(=O)N[C@@H](C)C(=O)N[C@@H](CCCNC(=N)N)C(N)=O", "target": "SIRT1", "assay": "enzyme activity, inhibitor", "quantity": "IC50", "value": "0.33 ± 0.08 µM"}
{"Structure (SMILES)": "CC(=O)NCCCC[C@H](NC(=O)[C@H](CCCCN)NC(=O)[C@H](Cc1c[nH]cn1)NC(=O)[C@H](CCCNC(=N)N)NC(C)=O)C(=O)Nc1ccc2c(C)cc(=O)oc2c1", "target": "NAD-dependent protein deacetylase sirtuin-1 (SIRT1, Homo sapiens, UniProt Q96EB6, C253S/C268S/C501S/C502S/del513-640/R446A)", "assay": "peptide binding, isothermal titration calorimetry", "system": "10% glycerol", "setting": "pH 7.5, 25 °C, R446A mutant, with: resveratrol 0.5 mM", "quantity": "Kd", "value": "17.7 µM"}
{"Structure (SMILES)": "CC(=S)NCCCC[C@H](NC(=O)[C@H](CCCNC(=N)N)NC(=O)[C@H](C)NC(=O)[C@@H](NC(=O)[C@H](CCC(N)=O)NC(=O)[C@@H](N)CCCCN)[C@@H](C)O)C(=O)N[C@@H](CO)C(=O)N[C@H](C(=O)NCC(=O)NCC(=O)N[C@@H](CCCCN)C(=O)N[C@@H](C)C(=O)O)[C@@H](C)O", "target": "SIRT1", "assay": "enzyme activity, inhibitor, HPLC", "quantity": "IC50", "value": "1 to 2 µM"}
{"Structure (SMILES)": "Cc1cc(C)nc(SCC(=O)Nc2ncc(Cc3cccc(OCc4cn(Cc5ccc(C#N)cc5)nn4)c3)s2)n1", "target": "SIRT1", "assay": "enzyme activity, inhibitor, fluorescence", "quantity": "IC50", "value": "> 100 µM"}
{"Structure (SMILES)": "CCCCCCCCCCCCNC(=S)NCCCC[C@H](NS(C)(=O)=O)C(=O)N[C@H](C)C(=O)N[C@@H](CCCNC(=N)N)C(N)=O", "target": "SIRT1", "assay": "enzyme activity, inhibitor", "quantity": "IC50", "value": "3.6 µM"}
{"Structure (SMILES)": "COCCn1cc(COc2cccc(Cc3cnc(NC(=O)C(C)c4ccc(CC(C)C)cc4)s3)c2)nn1 (stereo not drawn)", "target": "SIRT1", "assay": "enzyme activity, inhibitor, fluorescence", "quantity": "IC50", "value": "> 100 µM"}
{"Structure (SMILES)": "CCCCCCCCCCCCCC(=S)NCCCC[C@H](NC(=O)[C@H](CCCNC(=N)N)NC(=O)[C@H](C)N)C(=O)N[C@@H](CO)C(=O)N[C@H](C(=O)O)[C@@H](C)O", "target": "SIRT1", "quantity": "IC50", "value": "4.4 µM"}
{"note": "For quick reference, copied from above:"}
{"Structure (SMILES)": "COCCn1cc(COc2cccc(Cc3cnc(NC(=O)C(C)c4ccc(CC(C)C)cc4)s3)c2)nn1 (stereo not drawn)", "target": "SIRT1", "assay": "enzyme activity, inhibitor, fluorescence", "quantity": "IC50", "value": "> 100 µM"}
